{"data": "Results of several laboratories", "note": "A part holds a random share of what one study measured. Positions count from the first letter of the parent shown."}
{"data": "Sample 1", "target": "ABI1, truncated, D143A, DHFR fusion (Arabidopsis thaliana)", "technique": "DHFR PCA, deep sequencing", "sample": "yeast", "setting": "methotrexate growth selection, single substitutions", "added": "(+)-ABA 1.4 µM", "relative to": "wild-type fitted maximum", "reading": "higher = stronger binding", "starting sequence": "PYL1, truncated, DHFR fusion (Arabidopsis thaliana); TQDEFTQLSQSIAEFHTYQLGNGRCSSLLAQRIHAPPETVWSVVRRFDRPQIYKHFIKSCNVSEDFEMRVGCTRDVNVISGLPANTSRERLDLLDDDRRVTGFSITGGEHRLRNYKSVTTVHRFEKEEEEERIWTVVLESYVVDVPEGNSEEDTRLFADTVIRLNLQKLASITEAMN; partner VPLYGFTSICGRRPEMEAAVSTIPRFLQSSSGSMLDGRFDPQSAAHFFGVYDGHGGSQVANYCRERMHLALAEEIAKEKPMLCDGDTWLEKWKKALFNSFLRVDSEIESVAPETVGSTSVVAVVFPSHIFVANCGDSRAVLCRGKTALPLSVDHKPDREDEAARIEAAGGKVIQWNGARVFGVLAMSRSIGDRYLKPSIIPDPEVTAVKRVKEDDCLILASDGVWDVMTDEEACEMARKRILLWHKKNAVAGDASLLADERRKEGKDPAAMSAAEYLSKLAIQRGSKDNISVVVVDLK"}
{"Substitution": "R69P", "relative binding score [%]": 1.66}
{"Substitution": "N85H", "relative binding score [%]": 61.6}
{"Substitution": "Y18C", "relative binding score [%]": 9.39}
{"Substitution": "W134I", "relative binding score [%]": 62.5}
{"Substitution": "S59F", "relative binding score [%]": -1.7}
{"Substitution": "G107A", "relative binding score [%]": 23.2}
{"Substitution": "R32S", "relative binding score [%]": 36}
{"Substitution": "T86Y", "relative binding score [%]": 64.2}
{"Substitution": "E64A", "relative binding score [%]": 62.2}
{"Substitution": "V136M", "relative binding score [%]": 65.2}
{"Substitution": "F47T", "relative binding score [%]": -5.05}
{"Substitution": "E147F", "relative binding score [%]": 31.9}
{"data": "Sample 2", "target": "CCNB2, cyclin fold, Cln2 fusion (human)", "technique": "yeast growth competition, sequencing", "sample": "yeast", "setting": "weak parent motif", "relative to": "not given", "reading": "higher = stronger binding", "starting sequence": "INSM1 docking peptide (human); PKAIRKLHFEDEV"}
{"Substitution": "L7F", "normalised enrichment score": 0.156}
{"Substitution": "K2W", "normalised enrichment score": 0.023}
{"Substitution": "K2F", "normalised enrichment score": 0.0673}
{"Substitution": "K6G", "normalised enrichment score": -0.116}
{"Substitution": "E12N", "normalised enrichment score": 0.29}
{"Substitution": "I4R", "normalised enrichment score": 1.04}
{"Substitution": "H8D", "normalised enrichment score": 0.297}
{"Substitution": "A3C", "normalised enrichment score": 0.701}
{"Substitution": "A3I", "normalised enrichment score": 1.33}
{"Substitution": "K2C", "normalised enrichment score": 0.316}
{"Substitution": "H8T", "normalised enrichment score": 0.222}
{"Substitution": "R5Q", "normalised enrichment score": 0.00144}
{"Substitution": "H8N", "normalised enrichment score": 0.347}
{"Substitution": "A3G", "normalised enrichment score": -0.0323}
{"Substitution": "E12W", "normalised enrichment score": 0.0579}
{"Substitution": "R5I", "normalised enrichment score": -0.293}
{"Substitution": "K6D", "normalised enrichment score": 0.159}
{"Substitution": "R5P", "normalised enrichment score": -0.251}
{"Substitution": "E10L", "normalised enrichment score": 0.0499}
{"Substitution": "R5Y", "normalised enrichment score": 0.288}
{"Substitution": "L7A", "normalised enrichment score": 0.532}
{"Substitution": "L7R", "normalised enrichment score": 0.745}
{"Substitution": "A3R", "normalised enrichment score": 0.794}
{"Substitution": "K2Y", "normalised enrichment score": -0.0332}
{"Substitution": "L7K", "normalised enrichment score": 0.144}
{"data": "Sample 3", "target": "CEBPE, bZIP domain (human)", "technique": "DHFR protein complementation", "sample": "yeast", "setting": "single substitutions, most at no-binding floor", "relative to": "wild-type JUN-FOS pair", "reading": "higher = stronger binding", "starting sequence": "JUN, bZIP domain (human); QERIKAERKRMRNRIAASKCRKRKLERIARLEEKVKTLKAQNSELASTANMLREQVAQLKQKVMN; partner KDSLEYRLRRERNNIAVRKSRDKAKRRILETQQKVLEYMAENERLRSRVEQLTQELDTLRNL"}
{"Substitution": "S47E", "binding fitness [natural log]": -0.864}
{"Substitution": "E44H", "binding fitness [natural log]": -1.28}
{"Substitution": "K34V", "binding fitness [natural log]": -1.26}
{"Substitution": "S47W", "binding fitness [natural log]": -1.18}
{"Substitution": "K39I", "binding fitness [natural log]": -1.12}
{"Substitution": "L38V", "binding fitness [natural log]": -1.44}
{"Substitution": "T37Y", "binding fitness [natural log]": -1.12}
{"Substitution": "A46P", "binding fitness [natural log]": -1.43}
{"Substitution": "L38F", "binding fitness [natural log]": -1.53}
{"Substitution": "S47V", "binding fitness [natural log]": -0.993}
{"Substitution": "S47P", "binding fitness [natural log]": -1.55}
{"Substitution": "K34A", "binding fitness [natural log]": -1.21}
{"Substitution": "K39Q", "binding fitness [natural log]": -1.1}
{"Substitution": "Q41I", "binding fitness [natural log]": -1.2}
{"Substitution": "Q41L", "binding fitness [natural log]": -1.23}
{"Substitution": "S47D", "binding fitness [natural log]": -1.03}
{"Substitution": "N42S", "binding fitness [natural log]": -1.47}
{"data": "Sample 4", "target": "Interferon regulatory factor 7, full length, phosphomimetic (IRF7, Homo sapiens, UniProt Q92985, residues 1-503, S471D/S472D/S475D/S476D/S477D/S483D/S484D/S487D)", "technique": "protein-binding microarray", "molecule type": "double-stranded DNA, one strand shown", "sample": "in vitro", "tested at": "2200 nM top", "setting": "60-bp whole probe", "added": "salmon DNA 0.4 mg/ml", "relative to": "random background probes", "reading": "higher = stronger binding", "constant ends, left off below": "GCCTAGCAC … GTCTTGATTCGCTTGACGCTGCTG", "UniProt Q92985, sequence (whole entry, unmodified, looked up)": "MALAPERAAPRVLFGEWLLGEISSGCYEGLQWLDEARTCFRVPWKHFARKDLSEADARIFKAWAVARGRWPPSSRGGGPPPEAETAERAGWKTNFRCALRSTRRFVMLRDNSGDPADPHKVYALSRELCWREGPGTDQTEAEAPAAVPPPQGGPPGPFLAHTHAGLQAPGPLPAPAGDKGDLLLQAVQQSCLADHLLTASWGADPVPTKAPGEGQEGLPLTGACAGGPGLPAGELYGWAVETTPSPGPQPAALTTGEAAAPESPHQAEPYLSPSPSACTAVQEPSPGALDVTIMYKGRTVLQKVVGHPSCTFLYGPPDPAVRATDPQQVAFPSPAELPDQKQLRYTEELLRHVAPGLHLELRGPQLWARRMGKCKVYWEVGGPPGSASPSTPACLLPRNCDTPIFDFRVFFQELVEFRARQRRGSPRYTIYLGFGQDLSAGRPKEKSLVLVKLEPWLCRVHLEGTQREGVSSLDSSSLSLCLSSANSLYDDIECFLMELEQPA"}
{"Strand": "GCTTTTATGGTATTTTTTTCGTGCTAG", "fitted relative affinity [z-score]": 1.81}
{"Strand": "TTAGGTATCGGTTTCGGATAGTGCTAG", "fitted relative affinity [z-score]": 4.33}
{"Strand": "ATCTTCATGAAATTTTAATAAGTGCTA", "fitted relative affinity [z-score]": -0.458}
{"Strand": "GACGATCTCAATTTCGAGACGTGCTAG", "fitted relative affinity [z-score]": 1.43}
{"Strand": "GACGGAATCGACTATCGGGACGTGCTA", "fitted relative affinity [z-score]": 0.111}
{"Strand": "TACGATTTCGGGTTTCGAGACGTGCTA", "fitted relative affinity [z-score]": 5.55}
{"Strand": "GACAATTTCAGTCTCGAGACGTGCTAG", "fitted relative affinity [z-score]": 0.826}
{"Strand": "TTAGGTCGCCTACTGCTTTAGTGCTAG", "fitted relative affinity [z-score]": 0.319}
{"Strand": "GACGATATCCTACTGCTGACGTGCTAG", "fitted relative affinity [z-score]": 0.944}
{"Strand": "TTGGGTCTCGGTTTCGGTTAGTGCTAG", "fitted relative affinity [z-score]": 6.44}
{"Strand": "GACGAACTGGGGTTTCGTGACGTGCTA", "fitted relative affinity [z-score]": 0.677}
{"Strand": "GACGGTCTCCTTCTCGTGACGTGCTAG", "fitted relative affinity [z-score]": 0.854}
{"Strand": "TCAGGTATTTTTTTCTAACTGTGCTAG", "fitted relative affinity [z-score]": 0.637}
{"Strand": "TCAATACTCGTTTACATACTGTGCTAG", "fitted relative affinity [z-score]": 1.31}
{"Strand": "GACGATATCGTGTATCGAGACGTGCTA", "fitted relative affinity [z-score]": 0.228}
{"Strand": "GACGGTCTCGGTATCGGGAAGTGCTAG", "fitted relative affinity [z-score]": 0.194}
{"note": "Some of these lines once more (sample 1):"}
{"Substitution": "G107A", "relative binding score [%]": 23.2}
{"Substitution": "R32S", "relative binding score [%]": 36}
{"Substitution": "T86Y", "relative binding score [%]": 64.2}
{"Substitution": "E64A", "relative binding score [%]": 62.2}
{"Substitution": "V136M", "relative binding score [%]": 65.2}
